Measured values gathered from unrelated publications.
Lines come from different studies, so protocols differ. Values joined by “and” are separate records of one study, mostly repeats; a detail may differ.
TDP1: Tyrosyl-DNA phosphodiesterase 1 (TDP1, Homo sapiens, UniProt Q9NUW8)
UniProt Q9NUW8, sequence (whole entry, looked up): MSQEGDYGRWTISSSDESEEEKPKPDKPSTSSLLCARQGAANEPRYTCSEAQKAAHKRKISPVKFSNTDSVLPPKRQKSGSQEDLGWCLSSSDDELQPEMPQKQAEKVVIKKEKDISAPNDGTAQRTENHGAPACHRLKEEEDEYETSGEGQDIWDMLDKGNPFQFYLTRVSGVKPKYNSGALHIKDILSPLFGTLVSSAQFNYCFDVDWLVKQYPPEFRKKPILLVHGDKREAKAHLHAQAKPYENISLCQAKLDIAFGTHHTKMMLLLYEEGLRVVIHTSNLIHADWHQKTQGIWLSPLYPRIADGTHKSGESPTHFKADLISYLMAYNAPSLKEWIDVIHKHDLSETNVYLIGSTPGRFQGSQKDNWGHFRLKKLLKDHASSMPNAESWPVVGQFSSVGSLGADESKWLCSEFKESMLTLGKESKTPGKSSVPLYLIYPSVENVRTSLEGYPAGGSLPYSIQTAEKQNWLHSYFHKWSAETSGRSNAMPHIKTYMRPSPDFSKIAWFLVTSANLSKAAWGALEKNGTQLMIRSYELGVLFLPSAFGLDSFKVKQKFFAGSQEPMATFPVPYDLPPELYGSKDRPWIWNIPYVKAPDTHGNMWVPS
PRKG2: cGMP-dependent protein kinase 2 (PRKG2, Homo sapiens, UniProt Q13237)
UniProt Q13237, sequence (whole entry, unmodified, looked up): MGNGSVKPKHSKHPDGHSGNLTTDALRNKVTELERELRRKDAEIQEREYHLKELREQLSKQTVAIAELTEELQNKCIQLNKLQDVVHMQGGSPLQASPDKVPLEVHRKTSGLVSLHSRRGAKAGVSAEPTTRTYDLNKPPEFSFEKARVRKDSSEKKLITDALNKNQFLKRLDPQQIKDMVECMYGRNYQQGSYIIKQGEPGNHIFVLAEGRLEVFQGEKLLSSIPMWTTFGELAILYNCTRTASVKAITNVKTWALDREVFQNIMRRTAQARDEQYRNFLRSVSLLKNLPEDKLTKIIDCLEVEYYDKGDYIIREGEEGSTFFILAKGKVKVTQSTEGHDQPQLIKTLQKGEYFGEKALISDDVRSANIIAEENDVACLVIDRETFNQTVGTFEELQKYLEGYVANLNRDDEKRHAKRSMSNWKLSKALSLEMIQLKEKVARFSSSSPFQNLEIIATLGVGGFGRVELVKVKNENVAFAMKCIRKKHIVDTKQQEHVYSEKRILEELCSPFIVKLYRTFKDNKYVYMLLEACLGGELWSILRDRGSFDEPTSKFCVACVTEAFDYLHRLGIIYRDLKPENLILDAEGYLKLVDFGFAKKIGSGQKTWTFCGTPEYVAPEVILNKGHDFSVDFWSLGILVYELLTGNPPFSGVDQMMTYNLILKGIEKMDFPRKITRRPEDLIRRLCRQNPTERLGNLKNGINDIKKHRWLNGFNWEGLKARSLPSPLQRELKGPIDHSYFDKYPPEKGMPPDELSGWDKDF

CN(C)S(=O)(=O)c1ccc(-c2ccc(C=NOCc3ccc(-c4nc5cc(-c6ccccc6)ccn5c4Nc4ccc(C(=O)O)cc4)cc3)o2)cc1 (mixture of isomers) — inhibition (TDP1; enzyme activity, inhibitor; 100 µM, unpurified compound): 85.8%
C=CC(=O)Nc1cccc(-c2cnc3[nH]cc(C(=O)NC(C)(C)C)c3n2)c1 — inhibition (PRKG2; kinase activity; 0.1 µM): 3% and -1%
Cc1c[nH]c2nccc(-c3ccc(C(=O)N[C@@H]4c5c(F)cc(C(F)F)cc5C[C@@H]4O)cn3)c12 — remaining binding (PRKG2; binding, competition with immobilised ligand; 3 µM): 18%
Cc1ccc(-c2c(/C=C(\C#N)C(=O)NC(C)C)n(CCCO)c3ncnc(N)c23)cc1 — remaining binding (PRKG2; cell-free assay, competition with immobilised ligand; 1 µM): 98%
CCSc1c(C=NOCc2ccc3nc(-c4ccccc4)c(Nc4ccc(C(=O)O)cc4)n3c2)c2ccccc2n1C (mixture of isomers) — inhibition (TDP1; enzyme activity, inhibitor; 100 µM, unpurified compound): 58.8%
CCn1cc(C(=O)O)c(=O)c2c(N)c(F)c(NC3CCCCC3)cc21 — inhibition (PRKG2; kinase activity; 0.1 µM, added: ATP at Km): -6.2%
CNC(=O)C[C@H](Cc1ccc(C#N)cc1)NC(=O)c1cc(-c2ccc(CN[C@H](C)c3ccc(C)cc3)o2)ccc1Cl — activity vs control (PRKG2; enzyme activity, inhibitor; 1 µM): 99%
O=C(Cc1ccc(OCc2ccccc2)cc1)NC1(C(=O)O)CCN(C(=O)c2ccc(-c3cccc(Cl)c3)cc2)CC1 — activity vs control (PRKG2; enzyme activity, inhibitor; 10 µM): 98%
CC(C)=CC1OC(C)(C)C2C=C3C(=O)C(Cl)=CC(O)C3C3C(O)C4OC4C(=O)C132 (stereo not drawn) — remaining binding (PRKG2; cell-free assay, competition with immobilised ligand; 10 µM): 74%
NC(=O)C[C@H]1CCc2sc3ncnc(O[C@H]4CC[C@H](N5CCOCC5)CC4)c3c21 — inhibition (PRKG2; enzyme activity, inhibitor; 10 µM): 3%
COc1cc(Nc2nc(C)cc(-c3cnn4nc(OC)ccc34)n2)cc(C(F)(F)F)c1 — remaining activity (PRKG2; inhibitor; 1 µM; reference: control): 70%
CNC1C[S+]2CC[S+]3CC[S+](C1)[Ru-4]321([N]=C=S)[n]2c3ccc(OC)cc3c3c4c(c5cc(F)c[n+]1c5c32)C(=O)NC4=O (stereo not drawn) — remaining binding (PRKG2; KinomeScan; 0.1 µM; reference: untreated): 26%
CCN1CCN(Cc2ccc(C(=O)Nc3ccc(C)c(NCc4cnc5[nH]ccc5c4OC)c3)cc2C(F)(F)F)CC1 — remaining binding (PRKG2; binding, competition with immobilised ligand; 1 µM): 100%
Cc1cnc2nc1Nc1cccc(c1)COC/C=C/COCc1cc(ccc1OCCN1CCOCC1)N2 — remaining binding (PRKG2; binding; 0.1 µM): 100%
C=CC(=O)N1CCCC(n2c(=O)c3ncccc3n(Cc3ccc(Oc4ccccc4)cc3)c2=O)C1 (stereo not drawn) — remaining binding (PRKG2; cell-free assay, competition with immobilised ligand; 1 µM): 95%

For quick reference, copied from above:
CCN1CCN(Cc2ccc(C(=O)Nc3ccc(C)c(NCc4cnc5[nH]ccc5c4OC)c3)cc2C(F)(F)F)CC1 — remaining binding (PRKG2; binding, competition with immobilised ligand; 1 µM): 100%
